Experimental data collected from several papers.
Lines come from different studies, so protocols differ.
PTGS2: Prostaglandin G/H synthase 2 (PTGS2, Homo sapiens, UniProt P35354)
UniProt P35354, sequence (whole entry, looked up): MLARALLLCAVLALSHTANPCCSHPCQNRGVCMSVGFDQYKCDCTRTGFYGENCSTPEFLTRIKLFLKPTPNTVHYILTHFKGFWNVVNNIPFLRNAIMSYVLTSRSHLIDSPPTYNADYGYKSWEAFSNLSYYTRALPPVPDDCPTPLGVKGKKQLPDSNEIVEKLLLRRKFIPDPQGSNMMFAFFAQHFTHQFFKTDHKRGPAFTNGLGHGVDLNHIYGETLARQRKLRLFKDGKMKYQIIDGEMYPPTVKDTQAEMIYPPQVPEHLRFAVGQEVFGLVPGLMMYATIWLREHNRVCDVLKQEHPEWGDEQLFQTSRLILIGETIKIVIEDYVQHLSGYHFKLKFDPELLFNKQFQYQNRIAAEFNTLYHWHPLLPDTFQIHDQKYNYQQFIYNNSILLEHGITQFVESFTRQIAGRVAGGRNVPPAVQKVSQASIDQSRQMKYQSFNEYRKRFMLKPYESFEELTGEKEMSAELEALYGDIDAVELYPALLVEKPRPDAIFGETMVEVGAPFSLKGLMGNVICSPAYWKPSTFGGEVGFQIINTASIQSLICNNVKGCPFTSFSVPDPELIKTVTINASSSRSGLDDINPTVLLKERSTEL
CPL: CPL (Toxoplasma gondii, UniProt Q6DMN0)
UniProt O00408, sequence (whole entry, looked up): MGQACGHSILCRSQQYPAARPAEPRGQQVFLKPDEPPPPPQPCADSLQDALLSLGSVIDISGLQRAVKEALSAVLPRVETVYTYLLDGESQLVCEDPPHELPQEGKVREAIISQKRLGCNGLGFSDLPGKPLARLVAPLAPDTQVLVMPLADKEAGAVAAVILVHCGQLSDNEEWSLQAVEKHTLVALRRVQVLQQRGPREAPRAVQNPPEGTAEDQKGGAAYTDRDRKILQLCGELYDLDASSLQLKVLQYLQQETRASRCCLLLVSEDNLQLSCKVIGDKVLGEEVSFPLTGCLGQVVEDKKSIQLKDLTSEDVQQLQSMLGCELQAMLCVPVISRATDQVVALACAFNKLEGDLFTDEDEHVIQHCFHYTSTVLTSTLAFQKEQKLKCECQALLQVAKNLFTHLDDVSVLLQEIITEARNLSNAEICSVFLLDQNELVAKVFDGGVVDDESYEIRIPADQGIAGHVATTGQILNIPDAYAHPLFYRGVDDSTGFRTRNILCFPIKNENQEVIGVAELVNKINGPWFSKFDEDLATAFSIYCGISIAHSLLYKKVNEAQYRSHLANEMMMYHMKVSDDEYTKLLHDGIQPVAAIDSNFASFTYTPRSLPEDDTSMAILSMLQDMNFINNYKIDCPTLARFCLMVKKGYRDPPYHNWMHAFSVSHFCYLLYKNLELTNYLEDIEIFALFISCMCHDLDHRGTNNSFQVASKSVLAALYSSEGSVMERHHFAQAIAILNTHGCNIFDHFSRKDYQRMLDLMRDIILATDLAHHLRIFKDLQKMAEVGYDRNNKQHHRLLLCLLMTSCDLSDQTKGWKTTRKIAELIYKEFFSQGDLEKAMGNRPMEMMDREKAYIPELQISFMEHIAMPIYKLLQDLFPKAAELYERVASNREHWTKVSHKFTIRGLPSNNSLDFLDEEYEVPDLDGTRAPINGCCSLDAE
UniProt P17706, sequence (whole entry, looked up): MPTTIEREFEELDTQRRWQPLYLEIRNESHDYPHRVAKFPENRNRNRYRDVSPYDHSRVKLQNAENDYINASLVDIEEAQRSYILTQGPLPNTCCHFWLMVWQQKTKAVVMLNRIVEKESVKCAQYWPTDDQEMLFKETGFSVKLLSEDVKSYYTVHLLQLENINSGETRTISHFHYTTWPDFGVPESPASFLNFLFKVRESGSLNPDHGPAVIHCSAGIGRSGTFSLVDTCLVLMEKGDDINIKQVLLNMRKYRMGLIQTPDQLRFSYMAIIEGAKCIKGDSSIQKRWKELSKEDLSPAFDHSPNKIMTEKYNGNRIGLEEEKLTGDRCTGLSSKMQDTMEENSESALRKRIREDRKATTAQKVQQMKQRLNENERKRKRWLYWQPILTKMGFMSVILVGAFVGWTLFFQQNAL
UniProt P07237, sequence (whole entry, looked up): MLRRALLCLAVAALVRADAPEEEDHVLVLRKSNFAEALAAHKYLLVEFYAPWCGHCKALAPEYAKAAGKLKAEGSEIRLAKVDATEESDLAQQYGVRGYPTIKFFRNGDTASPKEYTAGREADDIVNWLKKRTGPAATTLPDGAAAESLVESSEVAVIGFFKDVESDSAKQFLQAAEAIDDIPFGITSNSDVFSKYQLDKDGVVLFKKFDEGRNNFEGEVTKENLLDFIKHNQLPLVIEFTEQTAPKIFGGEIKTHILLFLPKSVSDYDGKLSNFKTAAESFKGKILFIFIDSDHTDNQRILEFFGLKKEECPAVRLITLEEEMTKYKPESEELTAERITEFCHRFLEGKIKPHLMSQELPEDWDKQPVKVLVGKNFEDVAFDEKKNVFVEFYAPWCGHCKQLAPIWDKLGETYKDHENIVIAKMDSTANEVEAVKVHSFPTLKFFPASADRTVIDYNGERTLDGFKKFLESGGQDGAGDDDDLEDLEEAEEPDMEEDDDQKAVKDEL
UniProt P35462, sequence (whole entry, looked up): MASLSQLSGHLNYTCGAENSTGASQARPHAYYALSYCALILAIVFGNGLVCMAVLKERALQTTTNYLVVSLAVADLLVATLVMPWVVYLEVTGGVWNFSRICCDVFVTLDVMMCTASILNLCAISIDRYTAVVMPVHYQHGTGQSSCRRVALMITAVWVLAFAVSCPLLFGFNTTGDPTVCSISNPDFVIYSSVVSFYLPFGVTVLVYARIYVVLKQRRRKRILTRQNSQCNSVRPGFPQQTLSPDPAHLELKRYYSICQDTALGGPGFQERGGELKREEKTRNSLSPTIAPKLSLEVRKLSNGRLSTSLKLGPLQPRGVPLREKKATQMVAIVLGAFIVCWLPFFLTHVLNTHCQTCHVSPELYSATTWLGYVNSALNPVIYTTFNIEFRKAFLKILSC
UniProt O14965, sequence (whole entry, looked up): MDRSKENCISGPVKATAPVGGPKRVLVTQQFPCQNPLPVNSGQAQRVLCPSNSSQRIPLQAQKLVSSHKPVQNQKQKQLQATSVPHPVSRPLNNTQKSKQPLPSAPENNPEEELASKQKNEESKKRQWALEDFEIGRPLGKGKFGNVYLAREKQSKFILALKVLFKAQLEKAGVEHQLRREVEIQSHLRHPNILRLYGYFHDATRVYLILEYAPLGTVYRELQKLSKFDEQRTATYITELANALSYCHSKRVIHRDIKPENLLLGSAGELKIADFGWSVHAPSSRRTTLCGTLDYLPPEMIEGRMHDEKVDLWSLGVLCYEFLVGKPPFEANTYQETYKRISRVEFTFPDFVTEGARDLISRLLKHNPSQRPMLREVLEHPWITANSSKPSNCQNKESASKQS

Structure (SMILES)	target	assay	system	conditions	how to read	selectivity ratio
N#CC1=C(N)n2c(nnc2-c2ccccc2)NC1c1ccc(Cl)cc1 (stereo not drawn)	PTGS2	enzyme activity	–	–	relative to: IC50 COX-1 over IC50 COX-2	9
CC(C)CCN(Cc1ccccc1)c1nc(C#N)nc(N2CCOCC2)n1	CPL	enzyme activity, inhibitor	–	–	relative to: human over Toxoplasma IC50	0.6
N#CC1=C(N)n2c(nnc2-c2ccncc2)NC1c1ccc(Br)cc1 (stereo not drawn)	PTGS2	enzyme activity	–	–	relative to: IC50 COX-1 over IC50 COX-2	5
CC(C)CCN(Cc1cccc(C(F)(F)F)c1)c1nc(C#N)nc(N2CCOCC2)n1	CPL	enzyme activity, inhibitor	–	–	relative to: human over Toxoplasma IC50	0.2
CC(C)[C@@H](NC(=O)[C@@H](C)c1cccc(C(=O)c2ccccc2)c1)C(=O)N[C@H](CCC(=O)O)C(=O)N[C@@H](C(=O)N[C@H](CCC(=O)O)C(=O)O)C(C)C	PTGS2	fluorescence	–	–	relative to: COX-1 IC50 over COX-2 IC50	4.8
N#Cc1nc(N2CCOCC2)nc(N(Cc2ccc(F)cc2)CC2CCNCC2)n1	CPL	enzyme activity, inhibitor	–	–	relative to: human over Toxoplasma IC50	0.8
Cc1cc(O)cc(C)c1C[C@H](N)C(=O)N[C@@H]1CSSC[C@@H](NC(=O)[C@@H](N)Cc2c(C)cc(O)cc2C)C(=O)NCC(=O)N[C@@H](Cc2ccccc2)C(=O)NNC(=O)[C@H](Cc2ccccc2)NC(=O)CNC1=O	human opioid receptors	binding	–	–	relative to: DOR over MOR	16 fold
CCCCCCCCCCCC1=C(O)C(=O)C=C(NCCN2CCOCC2)C1=O	PTGS2	enzyme activity, enzyme immunoassay	–	–	relative to: COX-1 IC50 over COX-2 IC50	2.06
N[C@@H](CCC(=O)N[C@@H](CS[Se]Cc1ccc(C(=O)Nc2cc(C(F)(F)F)c(Br)c(C(F)(F)F)c2)cc1)C(=O)NCC(=O)O)C(=O)O	Tyrosine-protein phosphatase non-receptor type 2 (PTPN2, Homo sapiens, UniProt P17706)	enzyme activity	–	added: pNPP, GSH 1 mM	relative to: IC50 PTPN2 over mPTPA	> 100
Cc1cc(Nc2nc(C[C@@]3(C(=O)O)CCN(Cc4cccc(Cl)c4F)[C@H](C)C3)cc(C)c2F)[nH]n1	Aurora kinase A (AURKA, Homo sapiens, UniProt O14965)	Aurora kinase phosphorylation, Western blot	NCI-H446	–	relative to: Aurora A over Aurora B	> 2000 fold
CC(C)(F)CCN(Cc1ccc(F)cc1)c1nc(C#N)nc(N2CCOCC2)n1	CPL	enzyme activity, inhibitor	–	–	relative to: human over Toxoplasma IC50	1.5
COc1ccccc1N1CCN(CCCCNC(=O)/N=N/c2ccc(F)cc2)CC1	D(3) dopamine receptor (DRD3, Homo sapiens, UniProt P35462)	radioligand binding	CHO membranes	added: [3H]spiperone	relative to: Ki D2 over Ki D3	10
CCCCc1ccc(S(=O)(=O)N2CC2C(=O)OC)cc1 (stereo not drawn)	Protein disulfide-isomerase (P4HB, Homo sapiens, UniProt P07237)	insulin reduction, inhibitor	–	–	relative to: IC50 PDIA1 over IC50 PDIA3	0.0004 to 0.0035
C=CCCN(Cc1ccc(F)cc1)c1nc(C#N)nc(N2CCOCC2)n1	CPL	enzyme activity, inhibitor	–	–	relative to: human over Toxoplasma IC50	0.44
COCCCN1CCc2c(Cc3ccc(Cl)cc3)[nH]c3c(OC(F)F)ccc(c23)C1=O	cGMP-dependent 3',5'-cyclic phosphodiesterase (PDE2A, Homo sapiens, UniProt O00408)	enzyme activity	–	–	relative to: IC50 PDE5A1 over PDE2A	> 1200

Repeated from above:
Structure (SMILES)	target	assay	system	conditions	how to read	selectivity ratio
N#CC1=C(N)n2c(nnc2-c2ccncc2)NC1c1ccc(Br)cc1 (stereo not drawn)	PTGS2	enzyme activity	–	–	relative to: IC50 COX-1 over IC50 COX-2	5
CC(C)CCN(Cc1cccc(C(F)(F)F)c1)c1nc(C#N)nc(N2CCOCC2)n1	CPL	enzyme activity, inhibitor	–	–	relative to: human over Toxoplasma IC50	0.2
